Published values gathered from unrelated publications.
Each numbered part is a random draw from the data of one study; scales do not carry over between parts. Values joined by “and” are separate records of one study, mostly repeats; a detail may differ.
Sequence of UniProt Q7L7X3 (whole entry, looked up): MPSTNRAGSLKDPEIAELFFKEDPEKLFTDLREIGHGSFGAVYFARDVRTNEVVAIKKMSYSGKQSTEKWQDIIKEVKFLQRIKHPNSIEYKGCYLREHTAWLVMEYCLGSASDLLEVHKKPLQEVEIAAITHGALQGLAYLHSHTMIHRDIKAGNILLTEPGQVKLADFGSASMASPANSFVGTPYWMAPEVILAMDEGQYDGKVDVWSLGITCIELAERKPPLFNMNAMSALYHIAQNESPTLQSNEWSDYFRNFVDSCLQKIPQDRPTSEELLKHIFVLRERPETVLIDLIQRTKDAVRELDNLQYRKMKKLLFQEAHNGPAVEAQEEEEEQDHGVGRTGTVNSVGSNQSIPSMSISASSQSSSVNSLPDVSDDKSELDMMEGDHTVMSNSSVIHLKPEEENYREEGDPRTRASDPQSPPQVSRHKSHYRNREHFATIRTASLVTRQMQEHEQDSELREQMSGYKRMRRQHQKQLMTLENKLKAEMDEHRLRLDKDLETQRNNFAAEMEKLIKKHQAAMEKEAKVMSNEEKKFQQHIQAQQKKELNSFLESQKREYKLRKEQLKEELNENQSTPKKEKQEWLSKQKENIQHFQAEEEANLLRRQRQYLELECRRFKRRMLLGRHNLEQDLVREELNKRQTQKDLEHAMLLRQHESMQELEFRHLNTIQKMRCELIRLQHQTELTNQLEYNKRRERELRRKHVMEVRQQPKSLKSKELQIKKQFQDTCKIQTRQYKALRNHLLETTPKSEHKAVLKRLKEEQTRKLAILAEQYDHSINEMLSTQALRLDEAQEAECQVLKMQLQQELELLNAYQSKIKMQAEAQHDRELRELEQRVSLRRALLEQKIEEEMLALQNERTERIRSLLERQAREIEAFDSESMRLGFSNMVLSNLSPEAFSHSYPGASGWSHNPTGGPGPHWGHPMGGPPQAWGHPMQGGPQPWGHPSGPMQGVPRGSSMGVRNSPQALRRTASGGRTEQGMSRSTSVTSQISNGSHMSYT
Sequence of UniProt Q9H093 (whole entry, looked up): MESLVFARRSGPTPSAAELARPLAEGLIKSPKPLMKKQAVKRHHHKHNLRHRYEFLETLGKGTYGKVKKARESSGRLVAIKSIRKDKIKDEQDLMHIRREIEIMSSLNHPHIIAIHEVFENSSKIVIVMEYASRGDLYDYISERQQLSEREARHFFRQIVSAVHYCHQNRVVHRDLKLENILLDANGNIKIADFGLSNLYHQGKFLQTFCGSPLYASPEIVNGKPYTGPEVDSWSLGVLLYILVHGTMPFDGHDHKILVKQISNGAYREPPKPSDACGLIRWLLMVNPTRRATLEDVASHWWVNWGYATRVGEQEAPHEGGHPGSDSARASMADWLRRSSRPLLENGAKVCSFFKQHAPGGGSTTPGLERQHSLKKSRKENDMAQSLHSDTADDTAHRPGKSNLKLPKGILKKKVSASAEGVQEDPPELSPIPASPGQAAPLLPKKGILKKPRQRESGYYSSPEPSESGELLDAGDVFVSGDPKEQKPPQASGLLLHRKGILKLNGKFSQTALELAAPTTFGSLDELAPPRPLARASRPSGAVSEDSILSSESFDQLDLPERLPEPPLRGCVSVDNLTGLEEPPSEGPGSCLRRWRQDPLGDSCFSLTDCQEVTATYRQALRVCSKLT
Sequence of UniProt P10721 (whole entry, unmodified, looked up): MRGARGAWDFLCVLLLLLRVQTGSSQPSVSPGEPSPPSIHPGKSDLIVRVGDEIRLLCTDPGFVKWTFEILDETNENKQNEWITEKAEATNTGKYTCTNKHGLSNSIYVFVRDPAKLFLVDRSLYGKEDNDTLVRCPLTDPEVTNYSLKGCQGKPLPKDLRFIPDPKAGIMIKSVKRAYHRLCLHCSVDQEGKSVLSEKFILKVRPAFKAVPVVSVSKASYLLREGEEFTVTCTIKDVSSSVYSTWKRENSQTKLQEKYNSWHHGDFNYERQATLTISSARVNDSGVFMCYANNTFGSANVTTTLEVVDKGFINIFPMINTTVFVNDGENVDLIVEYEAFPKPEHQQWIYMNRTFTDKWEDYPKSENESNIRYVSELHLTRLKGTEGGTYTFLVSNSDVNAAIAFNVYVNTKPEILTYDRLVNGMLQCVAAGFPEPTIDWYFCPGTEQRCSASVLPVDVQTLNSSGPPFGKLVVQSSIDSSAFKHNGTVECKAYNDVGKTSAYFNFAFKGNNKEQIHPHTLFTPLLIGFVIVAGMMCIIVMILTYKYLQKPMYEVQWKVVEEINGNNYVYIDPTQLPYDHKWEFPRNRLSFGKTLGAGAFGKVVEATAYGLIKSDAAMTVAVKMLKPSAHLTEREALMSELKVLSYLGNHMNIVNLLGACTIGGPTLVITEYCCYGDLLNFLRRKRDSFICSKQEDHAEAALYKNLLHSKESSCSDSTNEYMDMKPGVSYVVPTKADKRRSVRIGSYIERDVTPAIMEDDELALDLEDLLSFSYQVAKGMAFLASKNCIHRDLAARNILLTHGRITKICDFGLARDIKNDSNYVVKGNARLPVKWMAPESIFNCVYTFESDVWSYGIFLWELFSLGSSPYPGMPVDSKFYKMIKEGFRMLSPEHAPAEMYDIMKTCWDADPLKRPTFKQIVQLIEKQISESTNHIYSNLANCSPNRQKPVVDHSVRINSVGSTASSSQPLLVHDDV
Sequence of UniProt P42336 (whole entry, unmodified, looked up): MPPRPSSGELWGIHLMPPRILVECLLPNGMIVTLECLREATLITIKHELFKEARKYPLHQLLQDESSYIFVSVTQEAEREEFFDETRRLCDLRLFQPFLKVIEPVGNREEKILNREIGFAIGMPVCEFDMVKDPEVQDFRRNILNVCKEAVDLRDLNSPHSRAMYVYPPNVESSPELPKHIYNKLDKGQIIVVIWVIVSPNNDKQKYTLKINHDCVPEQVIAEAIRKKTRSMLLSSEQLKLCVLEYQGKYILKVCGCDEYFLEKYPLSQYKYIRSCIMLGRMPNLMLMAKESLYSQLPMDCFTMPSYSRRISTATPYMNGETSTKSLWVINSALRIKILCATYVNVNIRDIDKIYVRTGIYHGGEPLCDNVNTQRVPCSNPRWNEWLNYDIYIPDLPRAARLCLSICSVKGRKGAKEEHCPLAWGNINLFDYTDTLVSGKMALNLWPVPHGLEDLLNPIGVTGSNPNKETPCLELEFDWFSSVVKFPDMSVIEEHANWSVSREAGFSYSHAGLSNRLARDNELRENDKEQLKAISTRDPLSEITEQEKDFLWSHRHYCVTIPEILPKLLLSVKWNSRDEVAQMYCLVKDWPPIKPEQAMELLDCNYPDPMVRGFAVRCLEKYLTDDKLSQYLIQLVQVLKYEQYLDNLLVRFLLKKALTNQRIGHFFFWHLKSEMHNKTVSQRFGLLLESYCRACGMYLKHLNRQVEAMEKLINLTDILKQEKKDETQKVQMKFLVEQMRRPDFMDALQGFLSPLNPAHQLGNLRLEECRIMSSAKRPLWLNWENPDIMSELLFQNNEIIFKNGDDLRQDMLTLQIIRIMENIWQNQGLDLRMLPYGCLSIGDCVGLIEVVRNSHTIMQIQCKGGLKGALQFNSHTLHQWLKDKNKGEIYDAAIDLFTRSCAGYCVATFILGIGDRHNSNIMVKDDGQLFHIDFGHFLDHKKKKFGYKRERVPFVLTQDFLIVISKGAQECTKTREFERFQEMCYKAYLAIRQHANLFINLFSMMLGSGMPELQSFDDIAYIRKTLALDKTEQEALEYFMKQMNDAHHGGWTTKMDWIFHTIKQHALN

Block 1 — read-out: cell-free assay; technique: competition with immobilised ligand; tested at: 1 µM; measurement: remaining binding
Structure (SMILES): CCS(=O)(=O)c1cc2cc(C[C@](O)(CC(C)(C)c3ccc(F)cc3C(N)=O)C(F)(F)F)[nH]c2cn1
NUAK family SNF1-like kinase 2 (NUAK2, Homo sapiens, UniProt Q9H093): 95%
Mast/stem cell growth factor receptor Kit (KIT, Homo sapiens, UniProt P10721, V559D): 100%
Phosphatidylinositol 4,5-bisphosphate 3-kinase catalytic subunit alpha isoform (PIK3CA, Homo sapiens, UniProt P42336, M1043I): 88%
Mitogen-activated protein kinase kinase kinase 4 (MAP3K4, Homo sapiens, UniProt Q9Y6R4): 93%
Tyrosine-protein kinase ABL2 (ABL2, Homo sapiens, UniProt P42684): 80%
Serine/threonine-protein kinase TAO1 (TAOK1, Homo sapiens, UniProt Q7L7X3): 88%

Block 2 — read-out: enzyme activity; mode: inhibitor; tested at: 0.5 µM; reference: control; measurement: remaining activity
Target: Ephrin type-A receptor 1 (EPHA1, Homo sapiens, UniProt P21709)
Sequence of UniProt P21709 (whole entry, looked up): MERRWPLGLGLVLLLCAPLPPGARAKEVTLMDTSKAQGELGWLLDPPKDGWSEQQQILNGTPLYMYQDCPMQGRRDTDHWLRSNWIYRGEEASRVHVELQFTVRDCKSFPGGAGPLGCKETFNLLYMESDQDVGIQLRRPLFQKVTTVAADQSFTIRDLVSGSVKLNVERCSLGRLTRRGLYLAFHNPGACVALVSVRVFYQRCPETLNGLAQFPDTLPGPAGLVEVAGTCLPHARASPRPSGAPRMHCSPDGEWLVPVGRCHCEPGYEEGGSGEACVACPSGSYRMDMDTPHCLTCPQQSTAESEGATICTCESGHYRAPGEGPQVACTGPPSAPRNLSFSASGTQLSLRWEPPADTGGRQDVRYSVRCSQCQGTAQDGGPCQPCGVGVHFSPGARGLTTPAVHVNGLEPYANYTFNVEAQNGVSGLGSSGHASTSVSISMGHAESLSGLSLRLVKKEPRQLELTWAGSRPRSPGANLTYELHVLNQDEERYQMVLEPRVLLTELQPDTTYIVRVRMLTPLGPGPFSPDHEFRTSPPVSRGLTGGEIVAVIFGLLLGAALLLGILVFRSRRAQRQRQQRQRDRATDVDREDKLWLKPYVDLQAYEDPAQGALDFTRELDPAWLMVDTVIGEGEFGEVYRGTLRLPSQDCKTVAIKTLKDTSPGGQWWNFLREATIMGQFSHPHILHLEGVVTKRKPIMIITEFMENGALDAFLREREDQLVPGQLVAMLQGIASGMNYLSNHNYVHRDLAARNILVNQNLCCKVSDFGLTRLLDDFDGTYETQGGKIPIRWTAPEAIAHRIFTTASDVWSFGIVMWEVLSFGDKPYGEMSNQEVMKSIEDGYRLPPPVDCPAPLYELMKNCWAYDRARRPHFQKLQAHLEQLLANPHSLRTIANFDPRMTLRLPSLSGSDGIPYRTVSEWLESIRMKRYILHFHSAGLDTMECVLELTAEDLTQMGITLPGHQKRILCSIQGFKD
O=C1c2ccccc2-c2n[nH]c3cccc1c23: 77.8%
CN(C)C[C@H]1CCn2c(c(C3=C(c4cn(C)c5ccccc45)C(=O)NC3=O)c3ccccc32)C1: 100%
CCN(CC)CCNC(=O)c1c(C)[nH]c(/C=C2\C(=O)Nc3ccc(F)cc32)c1C: 95.1%
c1ccc(-c2cnc(Nc3ccc(OCCN4CCCC4)cc3)s2)cc1: 85.3%
COc1cc2c(cc1OC)-c1[nH]nc(Nc3cccc(F)c3)c1C2: 102%
O=C1C(Cl)=C(N2C(=O)CCC2=O)C(=O)c2ccccc21: 97.6%
CCOc1nc(NC(=O)Cc2cc(OC)ccc2OC)cc(N)c1C#N: 97.4%
O=C(NC(NC(=S)Nc1ccc(F)c([N+](=O)[O-])c1)C(Cl)(Cl)Cl)C(c1ccccc1)c1ccccc1 (stereo not shown): 88.1%
O=c1cc(-c2cccc3c2Sc2ccccc2S3)oc(N2CCOCC2)c1: 84.7%
Cc1nc2cc3nc(-c4cccs4)cnc3cc2n1C: 87.1%
COc1cc2ncnc(Nc3cccc(Cl)c3)c2cc1OC: 81.7%
CCN(CC)CCNC(=O)c1c(C)[nH]c(/C=C2\C(=O)Nc3ccc(Cl)cc32)c1C: 89.4%
CN([C@@H](Cc1ccc(OS(=O)(=O)c2cccc3cnccc23)cc1)C(=O)N1CCN(c2ccccc2)CC1)S(=O)(=O)c1cccc2cnccc12: 102%
N#C/C(=C\c1ccc(O)c(O)c1)C(=O)NCc1ccccc1: 99.4%
N#Cc1c(NC(=O)c2cccc3ccccc23)sc2c1CCCC2: 103%
Cc1cc2ncc(-c3ccccc3)nc2cc1C: 99.9%
COc1cc2ncnc(Nc3ccc(O)c(Br)c3)c2cc1OC: 80.4%
CCN(CC)C(=O)c1ccc(Nc2nc(OCC3CCCCC3)c3[nH]cnc3n2)cc1: 90.2%
Nc1cccc(-c2cc3c(Oc4cccc(O)c4)ncnc3[nH]2)c1: 31.2%
Cc1cn(-c2cc(NC(=O)c3ccc(C)c(Nc4nccc(-c5cccnc5)n4)c3)cc(C(F)(F)F)c2)cn1: 63.2%
Ic1cccc(CSc2nnc(-c3ccncc3)o2)c1: 97%
Cn1nc2c3c(cccc31)C(=O)c1ccccc1-2: 94.8%
O=C(Nc1cccc(Nc2nccc(Nc3cccc(C(F)(F)F)c3)n2)c1)C1CC1: 81.8%
c1ccc(-c2[nH]ncc2-c2ccnc3ccccc23)nc1: 97.7%

Block 3 — cell line: Huh-7; tested at: 10 µM; time: 24 h; measurement: viability
CC(C)COCC(CN(Cc1ccccc1)c1ccccc1)N1CCCC1 (stereo not shown): 96.8%
NS(=O)(=O)c1cc(C2(O)NC(=O)c3ccccc32)ccc1Cl (stereo not shown): 102%
CN(C/C=C/C#CC(C)(C)C)Cc1cccc2ccccc12: 97.6%
Cc1cc(CC(=O)O)n(C)c1C(=O)c1ccc(Cl)cc1: 101%
CCCCCCCCCCCCCCCC[N+](C)(C)C: 77%
CC(C)NCC(O)COc1ccc(COCCOC(C)C)cc1 (stereo not shown): 104%
CC(C(=O)O)c1ccc(-c2ccccc2)c(F)c1 (stereo not shown): 98.8%
CC(C)(C)NC[C@H](O)COc1nsnc1N1CCOCC1: 103%
CC(CN(C)C)CN1c2ccccc2Sc2ccccc21 (stereo not shown): 99.4%
Nc1nc(F)nc2c1ncn2[C@@H]1O[C@H](COP(=O)(O)O)[C@@H](O)[C@@H]1O: 79.1%

Block 4 — cell line: mouse MPNST tumor cells; technique: high-content nuclear imaging; measured: cell number; tested at: 10 µM; time: 12 h; notes: mean of 2 replicates; reference: plate mean; direction: higher = more cells; measurement: nuclei count
CCN(CCNC(=O)Nc1ccccc1Br)c1cccc(C)c1: 1.88 z-score
N#C[C@@H]1C[C@@H]2C[C@@H]2N1C(=O)[C@@H](N)C12CC3CC(CC(O)(C3)C1)C2: 2.08 z-score and 0.928 z-score
CCCn1c(=O)[nH]c2nc(-c3ccc(S(=O)(=O)N4CCN(c5ccc(Cl)cc5)CC4)cc3)[nH]c2c1=O: 2.15 z-score
CC(=O)NNC(=O)N1Cc2ccccc2Oc2ccc(Cl)cc21: 0.189 z-score
O=C(O)c1ccccc1Nc1cccc(OCc2ccc3ccccc3n2)c1: -0.414 z-score
CC(=O)Oc1cccc2c1C(=O)c1c(OC(C)=O)cc(C(=O)O)cc1C2=O: -0.677 z-score and 1.26 z-score
CCCOc1ccccc1-c1nc2[nH]nnc2c(=O)[nH]1: 0.353 z-score and -0.166 z-score
COc1ccc2cc([C@H](C)C(=O)O)ccc2c1: -0.0127 z-score
CNCCN1CCC(c2cc(CN(C)C(=O)c3cccc(Oc4ccccc4)c3)ccn2)CC1: 0.628 z-score and 0.646 z-score
Cn1c(NC[C@@H](N)Cc2ccccc2)nc(-c2ccncc2)c(-c2ccc3ccccc3c2)c1=O: 2.34 z-score
OCCOCCN1CCN(C2=Nc3ccccc3Sc3ccccc32)CC1: -1.1 z-score and 1.31 z-score
COC1CCN(c2cccc(-c3cc(NC(C)=O)nc(-n4nc(C)cc4C)n3)n2)CC1: 4.68 z-score
Cc1nc2ccc(NC(=O)Nc3ccnc4cccnc34)cc2o1: 3.81 z-score
CCCC[C@@H](C=O)NC(=O)[C@H](CC(C)C)NC(=O)OCc1ccccc1: 1.29 z-score
CC(=O)CCCCn1c(=O)c2c(ncn2C)n(C)c1=O: 1.1 z-score

A few entries again (block 2):
CCN(CC)CCNC(=O)c1c(C)[nH]c(/C=C2\C(=O)Nc3ccc(Cl)cc32)c1C: 89.4%
CN([C@@H](Cc1ccc(OS(=O)(=O)c2cccc3cnccc23)cc1)C(=O)N1CCN(c2ccccc2)CC1)S(=O)(=O)c1cccc2cnccc12: 102%
N#C/C(=C\c1ccc(O)c(O)c1)C(=O)NCc1ccccc1: 99.4%
N#Cc1c(NC(=O)c2cccc3ccccc23)sc2c1CCCC2: 103%
Cc1cc2ncc(-c3ccccc3)nc2cc1C: 99.9%
COc1cc2ncnc(Nc3ccc(O)c(Br)c3)c2cc1OC: 80.4%
CCN(CC)C(=O)c1ccc(Nc2nc(OCC3CCCCC3)c3[nH]cnc3n2)cc1: 90.2%
Nc1cccc(-c2cc3c(Oc4cccc(O)c4)ncnc3[nH]2)c1: 31.2%
